Measured values of several laboratories.
Protocols differ between the studies behind these lines. Several values in a cell are separate wells, animals, samples, runs or records. Numbers after ± are the reported error.

CC(=O)c1cccc(CN2CCCC(CCC(=O)NCc3ccccc3F)C2)c1 (stereo not drawn)  translation activity (Trypanosoma cruzi; reporter mRNA translation, inhibitor, measured: Renilla luciferase mRNA; cell-free extract; concentration not given, test 2; baseline: positive over negative control): 105% and 102%
CN(C)Cc1nc(Nc2ccc(-c3cnc4cc(F)ccn34)c3c2C(=O)NC3)ccc1C1CCOC1 (stereo not drawn)  EC50 (human CD8 T cells; cytokine induction, measured: IL-2; added: anti-CD3/CD28): 0.013 µM
COc1ccc(N(c2ccccc2)S(=O)(=O)C2CC3OC2C(c2ccc(O)cc2)=C3c2ccc(O)cc2)cc1 (stereo not drawn)  EC50 (MCF7 3xERE-luc, steroid-deprived; ERE luciferase reporter, agonist): 0.0631 µM
COc1ccc(NC(=O)c2ccc3[nH]c(-c4ccc(N(C)C)cc4)nc3c2)cn1  EC50 (YAPC; cell growth, CellTiter-Glo): 5.71 µM
C=C(NC(=O)c1csc(-c2ccc(NC(=O)CCCCCBr)cc2)n1)C(=O)NC(=C)C(=O)OC  EC50 (SCC-61; cell viability): 1.8 µM
CCc1sc(C(=O)NC2CCN(C)CC2)cc1Br  translation activity (Trypanosoma cruzi; reporter mRNA translation, inhibitor, measured: Renilla luciferase mRNA; cell-free extract; concentration not given, test 2; baseline: positive over negative control): 124% and 102%
CC[C@H]1CC[C@H]2[C@@H]3C[C@@H](O)[C@@]4(O)C[C@H](N)CC[C@]4(C)[C@H]3CC[C@]12C  EC50 (HMC3; phagocytosis, high-content imaging; geometric mean, added: pHrodo-myelin uptake): 0.117 µM
COc1ccc(N(CCO)S(=O)(=O)C2CC3OC2C(c2ccc(O)cc2)=C3c2ccc(O)cc2)cc1 (stereo not drawn)  EC50 (MCF7 3xERE-luc, steroid-deprived; ERE luciferase reporter, agonist): 0.00126 µM
Cc1ccncc1.[Cl-].[Cl-].[Ru+2].c1cc(-c2ccc3cccnc3n2)nc(-c2ccc3cccnc3n2)c1.c1ccc2cc3nc4c5cccnc5c5ncccc5c4nc3cc2c1  EC50 (SK-MEL-28; cell viability; dark, hypoxia 1 % oxygen): 67.9 ± 0.8 µM
CC[C@H]1CN([C@@H](CC)c2ccc(C(F)(F)F)cc2)[C@H](CC)CN1c1nc(=O)n(C)c2ccc(C#N)nc12  EC50 (human CD4+ T cells; protein phosphorylation, phosphoproteomics, measured: SAMD1 phosphosite; 1 h, stimulation 60 min): 0.0117 µM
Cc1c(C#N)sc2c1S(=O)(=O)c1c-2sc(-c2sc3c(sc4c(C)c(COCc5cn(CC(=O)NCCOCCOCCCCCCCl)nn5)sc43)c2C)c1C  EC50 (HeLa stably expressing mitochondrial HaloTag-GFP; cell penetration, covalent, HaloTag chloroalkane penetration): 0.24 ± 0.03 µM
COc1ccc(N(CC2CC2)S(=O)(=O)C2CC3OC2C(c2ccc(O)cc2)=C3c2ccc(O)cc2)cc1 (stereo not drawn)  EC50 (MCF7 3xERE-luc, steroid-deprived; ERE luciferase reporter, agonist): 0.126 µM

Repeated from above:
COc1ccc(N(CCO)S(=O)(=O)C2CC3OC2C(c2ccc(O)cc2)=C3c2ccc(O)cc2)cc1 (stereo not drawn)  EC50 (MCF7 3xERE-luc, steroid-deprived; ERE luciferase reporter, agonist): 0.00126 µM
Cc1ccncc1.[Cl-].[Cl-].[Ru+2].c1cc(-c2ccc3cccnc3n2)nc(-c2ccc3cccnc3n2)c1.c1ccc2cc3nc4c5cccnc5c5ncccc5c4nc3cc2c1  EC50 (SK-MEL-28; cell viability; dark, hypoxia 1 % oxygen): 67.9 ± 0.8 µM
